Measurements from different studies.
A part holds a random share of what one study measured.

Series 1
Target: Centromere-binding protein 1, full length, N-terminal tag (CBF1, Saccharomyces cerevisiae, UniProt P17106, residues 1-351)
Sequence of UniProt P17106 (whole entry, looked up): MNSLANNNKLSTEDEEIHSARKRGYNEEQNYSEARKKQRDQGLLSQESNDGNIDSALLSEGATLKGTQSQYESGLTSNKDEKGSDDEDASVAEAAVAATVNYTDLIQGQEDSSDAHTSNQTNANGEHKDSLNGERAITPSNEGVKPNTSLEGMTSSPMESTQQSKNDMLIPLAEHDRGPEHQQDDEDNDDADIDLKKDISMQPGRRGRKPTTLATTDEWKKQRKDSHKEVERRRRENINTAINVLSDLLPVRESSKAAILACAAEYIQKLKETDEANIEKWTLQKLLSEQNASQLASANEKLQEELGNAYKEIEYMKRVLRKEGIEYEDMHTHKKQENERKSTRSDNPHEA
Technique: protein-binding microarray
Form: double-stranded DNA, one strand shown
Sample: in vitro
Tested at: 0.8 µM
Notes: whole 60-bp probe, no competitor
Direction: higher = stronger binding
Sequence	fluorescence intensity [a.u.]
GAATGCAAAGCGCATCAGATCATTAGGTGTGTCTAGGTCTTGATTCGCTTGACGCTGCTG	506
GAAATTTGAGCTATTTACGTGACTTCATCTTAGTAGGTCTTGATTCGCTTGACGCTGCTG	599
CTAGCAAAAGCGCACCACCAAAAGAGAAAAAAGTTCGTCTTGATTCGCTTGACGCTGCTG	526

Series 2
Target: Histone acetyltransferase KAT6A, winged helix 1, GST fusion (KAT6A, Homo sapiens, UniProt Q92794, residues 1-85)
Technique: protein binding microarray
Form: double-stranded DNA, one strand shown
Sample: in vitro
Tested at: not given
Notes: 8-mer, flanks averaged, mean of 2 arrays, mostly near background
Reference: not given
Direction: higher = stronger binding
Construct (chain): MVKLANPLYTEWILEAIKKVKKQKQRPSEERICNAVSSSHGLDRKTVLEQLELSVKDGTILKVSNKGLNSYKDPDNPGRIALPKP
Sequence	E-score
AATCTGGC	-0.113
CCTGCCCC	-0.0325
AACGTTAC	-0.0331

Series 3
Target: Interferon regulatory factor 5, full length, phosphomimetic (IRF5, Homo sapiens, UniProt Q13568-2, residues 1-514, S451D/S453D/S456D/S462D)
Technique: protein-binding microarray
Form: double-stranded DNA, one strand shown
Sample: in vitro
Tested at: 940 nM top
Notes: 60-bp whole probe
Added: salmon DNA 0.4 mg/ml
Reference: random background probes
Direction: higher = stronger binding
Sequence	fitted relative affinity [z-score]
GCCTAGCACTGTGTCCTGGCTTTGACTCTGTGCTAGGTCTTGATTCGCTTGACGCTGCTG	-0.373
GCCTAGCACTTAGGTCTCGCTATCGGTTAGTGCTAGGTCTTGATTCGCTTGACGCTGCTG	1.98
GCCTAGCACTTAGGTTTCGGGTTTCGGTTAGTGCTAGTCTTGATTCGCTTGACGCTGCTG	11.7

Further values, each from its own experiment
Substance	target	test	test system	setting	how to read	measurement	result
PhoQ, residues 284 288 289 292 302 303 NSMLDC	PhoP, residues 12 14 15 18 19 TQAML (Escherichia coli, UniProt P23836)	Sort-seq, measured: YFP reporter	E. coli	PhoQ-PhoP variant library, added: 10 µM Mg2+	reference: high Mg2+ state, higher = stronger signaling	fold induction	22.8

Some of these lines once more (series 2):
Sequence	E-score
AATCTGGC	-0.113
